Results gathered from unrelated publications.
A part holds a random share of what one study measured. Substitutions count along the parent as printed.

Block 1
Target: CCNA1, cyclin fold, Cln2 fusion (human)
Technique: yeast growth competition, sequencing
Medium: yeast
Setting: weak parent motif
Reference: not given
Reading: higher = stronger binding
Parent: viral docking peptide; KKAKRRLFTISDS; partner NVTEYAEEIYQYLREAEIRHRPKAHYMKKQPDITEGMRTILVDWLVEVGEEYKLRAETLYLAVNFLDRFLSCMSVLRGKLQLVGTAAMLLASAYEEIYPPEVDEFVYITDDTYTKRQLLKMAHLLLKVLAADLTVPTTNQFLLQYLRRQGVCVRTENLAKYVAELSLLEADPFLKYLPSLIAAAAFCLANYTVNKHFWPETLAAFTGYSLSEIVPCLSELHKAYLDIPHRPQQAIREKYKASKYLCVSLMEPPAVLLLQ
Under “normalised enrichment score”, `KKAKRRLFAISDS [T9A]` is recorded as 0.632.
`KKAKRRLFTIADS [S11A]` — result for “normalised enrichment score”: 0.493.
`KKAKARLFTISDS [R5A]` — result for “normalised enrichment score”: 0.217.
For `KKAKRRLFTISDA [S13A]`, “normalised enrichment score” read 0.557.
For `KAAKRRLFTISDS [K2A]`, “normalised enrichment score” read 0.525.
`KKAKRRLFTISAS [D12A]` — result for “normalised enrichment score”: 0.264.
Under “normalised enrichment score”, `KKAKKRLLTISDS [R5K F8L]` is recorded as 0.44.

Block 2
Target: TAR DNA-binding protein 43, full length, His tag (TARDBP, Homo sapiens, UniProt Q13148, residues 1-414)
Technique: RNA Bind-n-Seq
Form: RNA
Medium: in vitro
Tested at: 20 nM
Setting: 6-mer, flanks averaged, single round
Added: 150 mM LiCl
Reference: input library
Reading: higher = stronger binding
For `GCGUCA`, “6-mer enrichment (R)” read 0.929.
For `ACUGGG`, “6-mer enrichment (R)” read 1.01.
`GAGUGC`: “6-mer enrichment (R)” 1.19.
`ACUUCA` — result for “6-mer enrichment (R)”: 0.826.
`AACUAC` — result for “6-mer enrichment (R)”: 0.837.
`GGUCAG` — result for “6-mer enrichment (R)”: 0.964.
Under “6-mer enrichment (R)”, `UGAGUU` is recorded as 1.12.
For `GGACCA`, “6-mer enrichment (R)” read 0.93.

Block 3
Target: Hepatocyte nuclear factor 3-alpha (Foxa1, Mus musculus, UniProt P35582, residues 1-468, full length assumed)
Chain of UniProt P35582 (whole entry, looked up): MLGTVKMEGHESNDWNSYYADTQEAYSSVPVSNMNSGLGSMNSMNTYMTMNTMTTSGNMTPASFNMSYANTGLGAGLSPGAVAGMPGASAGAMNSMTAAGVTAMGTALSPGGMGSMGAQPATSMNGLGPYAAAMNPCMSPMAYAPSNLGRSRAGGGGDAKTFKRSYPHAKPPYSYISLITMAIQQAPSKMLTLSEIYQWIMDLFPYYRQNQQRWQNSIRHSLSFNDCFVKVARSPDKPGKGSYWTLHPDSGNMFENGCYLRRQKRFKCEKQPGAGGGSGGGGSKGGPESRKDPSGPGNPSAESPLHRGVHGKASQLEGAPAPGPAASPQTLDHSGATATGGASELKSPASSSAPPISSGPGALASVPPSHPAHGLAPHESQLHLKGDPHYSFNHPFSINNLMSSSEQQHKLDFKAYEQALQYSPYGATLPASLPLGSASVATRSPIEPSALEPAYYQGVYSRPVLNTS
Technique: EMSA with sequencing
Form: double-stranded DNA, one strand shown
Medium: in vitro
Tested at: 10 and 20 nM
Setting: whole designed probe, mean of two concentrations, ends assumed
Reference: negative control set to 0
Reading: higher = stronger binding
Shared flanks, not repeated: GTGAGCGGTGCCCATTGATGGGGAAC … TTTCACTGGGATCGTGGGGAC
For `TCTAAAATTTGGGGGGAAATTCTTGTTTTACACTGAAGCATAGAAATGACTCACATGGTTATACATTTTTCAAGAGCAATGCCCATGAATGAGTAATCTAGGAAGCATCTTCCTTGACAGCAACATCAGGGAAAGTCAGTCTTACTGATTAGTCTAGTGCAAGAGGTCACTGTCAAATTATATGCACACTCAT`, “normalised bound fraction” read -0.0696 ratio.
Under “normalised bound fraction”, `GAACAAAATACTTTTTGGCCTGCTTAATGTGGGAGAACATATAGACTTTTCTAGTTTCAGAGGTACTGGGAGACACTCCACATCACCTCAGTGTAATCTAGTGGTTCAGATCTCTGCTGTGAATATAGGCAGCTTTGGCTAAAATCCTGTTTTGTTTTGTTTTCTTTTTTGTTTTACAATAACTTAGTAACTT` is recorded as 0.0612 ratio.
For `TGATTCATCTGTAGGTCTGCTTCTATTGACTTTGTTCTCTTGATTATGGGCCACATTTTCCAGCTTCTTTGTGTGTTTTAAACTTTTGTATTATGTGTACTTTTACCTTACACACAAGCACATAAGCCATGTAAAGTCCCTGTTTTGGTGAGGTTGCAATTTTTGAGCCTCAAATTCTGACAGGAAGCCCCAG`, “normalised bound fraction” read 0.31 ratio.
Under “normalised bound fraction”, `CTTGATAAGATTGAGCTTCCAGCAGAATGTAAATGCATCTGCTAACAGCAACCAGGCTTTGTCCCAAAACAGTAGTGAATCAGAATCTGCACAGTAATTTTTGCAGTTAATTTCCTCTCCTGTACTTATGACTCACAGGCCTTTCTTTACGTTCACAGTTTCATAGAAATTGGCAAATACTTCTTGACACTGA` is recorded as -0.0236 ratio.
`GGGTCCCGGGCGGCGGCAGGAATGCAGGAATGCGCACAGGCTGTGGGCGGCCAGGAGGGAGTCCCGGCGCCTGCCGGCGGAAGTGCCAGTCTTTGTGTACCCTGTCCAACACCTCCCCCCGCCAGCGCGGAAGGCCGGGCTACCTGCGCGCCTGGCAGCGCCTGGCAGCCGGCTGGGTGGGGCGCAGGGGAGC`: “normalised bound fraction” 0.0187 ratio.

Block 4
Target: Sal-like protein 4, full length isoform A (SALL4, Homo sapiens, UniProt Q9UJQ4, residues 1-1053)
Chain of UniProt Q9UJQ4 (whole entry, looked up): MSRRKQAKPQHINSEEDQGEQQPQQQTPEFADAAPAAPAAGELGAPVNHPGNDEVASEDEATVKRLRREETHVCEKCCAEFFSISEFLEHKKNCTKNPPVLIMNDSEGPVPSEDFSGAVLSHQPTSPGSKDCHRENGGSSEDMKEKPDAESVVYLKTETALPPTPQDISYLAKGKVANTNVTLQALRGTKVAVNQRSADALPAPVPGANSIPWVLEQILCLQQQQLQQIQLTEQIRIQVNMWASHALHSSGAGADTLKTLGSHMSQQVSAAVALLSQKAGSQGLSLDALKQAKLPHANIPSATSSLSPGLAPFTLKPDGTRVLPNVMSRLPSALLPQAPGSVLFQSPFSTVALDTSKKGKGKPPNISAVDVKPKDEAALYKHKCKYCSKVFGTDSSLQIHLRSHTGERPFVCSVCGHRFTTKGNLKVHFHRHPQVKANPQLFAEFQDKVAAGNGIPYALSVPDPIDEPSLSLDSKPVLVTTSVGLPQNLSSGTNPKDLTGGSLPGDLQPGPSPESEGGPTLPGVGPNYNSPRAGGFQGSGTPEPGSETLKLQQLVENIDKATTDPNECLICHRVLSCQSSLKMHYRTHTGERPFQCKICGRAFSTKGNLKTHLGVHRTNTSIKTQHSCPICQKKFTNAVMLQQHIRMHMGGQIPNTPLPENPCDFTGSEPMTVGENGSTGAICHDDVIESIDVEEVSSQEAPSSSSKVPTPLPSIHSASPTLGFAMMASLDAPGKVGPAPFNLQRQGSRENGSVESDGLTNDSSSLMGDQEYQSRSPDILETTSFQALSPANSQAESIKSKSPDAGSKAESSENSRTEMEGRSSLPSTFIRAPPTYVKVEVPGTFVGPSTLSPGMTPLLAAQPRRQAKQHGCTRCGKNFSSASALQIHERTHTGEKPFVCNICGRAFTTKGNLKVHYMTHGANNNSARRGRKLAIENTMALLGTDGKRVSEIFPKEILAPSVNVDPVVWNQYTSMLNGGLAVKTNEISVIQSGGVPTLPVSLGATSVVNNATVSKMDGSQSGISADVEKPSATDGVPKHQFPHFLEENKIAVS
Technique: universal PBM
Form: double-stranded DNA, one strand shown
Medium: in vitro
Tested at: 600 nM
Setting: 8-mer, flanks averaged, mean of replicates
Reading: higher = stronger binding
With `ACTTCCGG` the E-score was -0.0931.
`GACTGTGA` has an E-score of 0.0369.
The E-score of `CGGTCATC` is reported as -0.181.
`AACCCGAA` has an E-score of 0.00203.
With `CGCGTTAC` the E-score was -0.0532.
`AAGGCGGC` gave an E-score of -0.168.
For `GCTCATCA`, the E-score was 0.0361.
With `AACACCTG` the E-score was -0.095.
